Experimental data pooled from the literature.
A part holds a random share of what one study measured. Substitutions count along the parent as printed.
Sequence of UniProt Q8N4C8 (whole entry, looked up): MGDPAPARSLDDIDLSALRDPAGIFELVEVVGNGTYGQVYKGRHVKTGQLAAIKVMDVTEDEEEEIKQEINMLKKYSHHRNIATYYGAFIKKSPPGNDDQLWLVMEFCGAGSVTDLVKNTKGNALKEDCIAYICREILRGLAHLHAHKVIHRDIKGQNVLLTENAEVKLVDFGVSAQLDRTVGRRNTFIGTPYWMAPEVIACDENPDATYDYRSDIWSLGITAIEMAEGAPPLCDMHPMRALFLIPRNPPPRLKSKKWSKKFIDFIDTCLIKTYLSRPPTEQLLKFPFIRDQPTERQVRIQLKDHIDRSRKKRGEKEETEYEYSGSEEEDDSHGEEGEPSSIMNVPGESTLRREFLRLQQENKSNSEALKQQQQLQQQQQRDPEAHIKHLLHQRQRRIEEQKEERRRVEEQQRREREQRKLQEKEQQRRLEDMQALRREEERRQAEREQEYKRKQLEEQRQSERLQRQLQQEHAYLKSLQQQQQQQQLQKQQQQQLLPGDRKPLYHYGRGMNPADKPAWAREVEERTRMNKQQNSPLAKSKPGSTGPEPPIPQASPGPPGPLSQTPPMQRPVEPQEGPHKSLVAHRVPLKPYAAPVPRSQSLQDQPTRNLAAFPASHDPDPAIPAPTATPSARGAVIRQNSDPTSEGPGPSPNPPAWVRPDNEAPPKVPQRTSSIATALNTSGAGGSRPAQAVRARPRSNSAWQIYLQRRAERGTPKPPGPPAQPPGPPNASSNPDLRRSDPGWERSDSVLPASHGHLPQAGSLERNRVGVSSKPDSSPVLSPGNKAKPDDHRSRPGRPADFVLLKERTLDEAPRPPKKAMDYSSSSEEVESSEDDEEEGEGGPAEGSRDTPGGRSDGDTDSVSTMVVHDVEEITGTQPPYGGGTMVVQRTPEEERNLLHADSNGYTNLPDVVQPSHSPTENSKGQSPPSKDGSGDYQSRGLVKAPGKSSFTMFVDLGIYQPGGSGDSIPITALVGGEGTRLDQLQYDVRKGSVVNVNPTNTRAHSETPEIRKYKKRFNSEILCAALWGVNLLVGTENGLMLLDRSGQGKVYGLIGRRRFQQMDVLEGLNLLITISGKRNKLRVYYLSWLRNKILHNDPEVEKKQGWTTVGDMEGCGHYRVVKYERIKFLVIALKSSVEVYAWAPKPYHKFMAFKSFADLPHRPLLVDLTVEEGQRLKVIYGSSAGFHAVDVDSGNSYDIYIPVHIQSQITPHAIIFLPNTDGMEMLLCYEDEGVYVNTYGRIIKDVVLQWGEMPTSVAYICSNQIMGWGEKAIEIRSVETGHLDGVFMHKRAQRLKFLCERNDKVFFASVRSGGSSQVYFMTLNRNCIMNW
Sequence of UniProt Q7KZI7 (whole entry, looked up): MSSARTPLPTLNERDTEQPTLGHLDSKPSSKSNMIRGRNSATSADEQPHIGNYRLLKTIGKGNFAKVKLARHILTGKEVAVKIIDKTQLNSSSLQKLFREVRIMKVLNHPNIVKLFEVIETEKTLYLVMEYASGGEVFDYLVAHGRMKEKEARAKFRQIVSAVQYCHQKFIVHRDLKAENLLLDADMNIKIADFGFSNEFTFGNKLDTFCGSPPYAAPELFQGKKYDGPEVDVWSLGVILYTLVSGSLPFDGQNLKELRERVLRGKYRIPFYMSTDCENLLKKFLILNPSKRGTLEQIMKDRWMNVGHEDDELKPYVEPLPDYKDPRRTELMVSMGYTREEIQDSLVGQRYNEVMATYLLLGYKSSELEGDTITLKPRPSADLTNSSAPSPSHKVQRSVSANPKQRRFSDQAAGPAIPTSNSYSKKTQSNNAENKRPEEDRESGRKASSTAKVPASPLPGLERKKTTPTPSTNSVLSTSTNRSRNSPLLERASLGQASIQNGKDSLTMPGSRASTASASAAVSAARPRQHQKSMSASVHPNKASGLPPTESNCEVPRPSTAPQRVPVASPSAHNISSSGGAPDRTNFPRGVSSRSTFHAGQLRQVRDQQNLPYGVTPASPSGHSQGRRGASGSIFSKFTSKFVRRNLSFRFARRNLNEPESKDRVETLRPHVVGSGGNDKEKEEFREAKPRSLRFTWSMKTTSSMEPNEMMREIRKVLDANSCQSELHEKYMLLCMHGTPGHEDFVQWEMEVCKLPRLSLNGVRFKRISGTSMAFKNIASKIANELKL
Sequence of UniProt P32298 (whole entry, looked up): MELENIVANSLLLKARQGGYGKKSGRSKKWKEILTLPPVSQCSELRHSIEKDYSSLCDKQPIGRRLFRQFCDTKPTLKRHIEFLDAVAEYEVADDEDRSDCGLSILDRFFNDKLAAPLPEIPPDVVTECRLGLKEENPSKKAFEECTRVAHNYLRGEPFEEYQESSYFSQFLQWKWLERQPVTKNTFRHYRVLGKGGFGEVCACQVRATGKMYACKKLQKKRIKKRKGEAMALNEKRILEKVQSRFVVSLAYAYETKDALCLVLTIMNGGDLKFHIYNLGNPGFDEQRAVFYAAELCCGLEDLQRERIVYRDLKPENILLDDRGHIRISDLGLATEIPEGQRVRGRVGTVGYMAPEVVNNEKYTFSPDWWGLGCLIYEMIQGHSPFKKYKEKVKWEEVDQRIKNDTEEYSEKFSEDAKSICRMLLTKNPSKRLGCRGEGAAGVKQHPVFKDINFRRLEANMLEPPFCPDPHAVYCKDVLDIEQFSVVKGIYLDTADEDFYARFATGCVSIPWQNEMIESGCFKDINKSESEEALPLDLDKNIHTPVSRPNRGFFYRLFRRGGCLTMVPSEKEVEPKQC
Sequence of UniProt O94804 (whole entry, looked up): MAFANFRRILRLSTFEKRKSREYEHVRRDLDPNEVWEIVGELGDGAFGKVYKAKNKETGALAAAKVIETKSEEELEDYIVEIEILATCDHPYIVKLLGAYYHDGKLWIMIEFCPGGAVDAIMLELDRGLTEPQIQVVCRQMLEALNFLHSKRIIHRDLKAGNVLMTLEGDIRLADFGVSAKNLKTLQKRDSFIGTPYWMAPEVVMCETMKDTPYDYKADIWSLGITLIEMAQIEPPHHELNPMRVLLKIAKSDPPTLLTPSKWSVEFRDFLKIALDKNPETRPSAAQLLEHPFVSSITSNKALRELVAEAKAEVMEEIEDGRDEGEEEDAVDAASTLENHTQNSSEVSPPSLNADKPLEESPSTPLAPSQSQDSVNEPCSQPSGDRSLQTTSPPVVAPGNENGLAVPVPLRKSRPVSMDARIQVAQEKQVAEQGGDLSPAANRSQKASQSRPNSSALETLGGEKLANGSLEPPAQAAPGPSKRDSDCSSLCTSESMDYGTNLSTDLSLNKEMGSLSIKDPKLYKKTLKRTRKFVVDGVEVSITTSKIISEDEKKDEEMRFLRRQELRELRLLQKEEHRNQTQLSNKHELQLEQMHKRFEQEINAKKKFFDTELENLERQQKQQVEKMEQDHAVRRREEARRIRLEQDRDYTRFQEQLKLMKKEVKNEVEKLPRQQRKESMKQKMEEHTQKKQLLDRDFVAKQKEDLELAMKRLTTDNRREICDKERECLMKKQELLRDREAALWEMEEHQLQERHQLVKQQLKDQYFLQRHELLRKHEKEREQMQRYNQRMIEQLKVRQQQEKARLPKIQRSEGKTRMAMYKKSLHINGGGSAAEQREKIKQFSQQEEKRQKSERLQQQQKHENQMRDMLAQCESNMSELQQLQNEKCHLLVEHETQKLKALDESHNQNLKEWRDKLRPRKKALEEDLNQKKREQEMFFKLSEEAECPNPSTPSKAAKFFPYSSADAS
Sequence of UniProt Q15759 (whole entry, looked up): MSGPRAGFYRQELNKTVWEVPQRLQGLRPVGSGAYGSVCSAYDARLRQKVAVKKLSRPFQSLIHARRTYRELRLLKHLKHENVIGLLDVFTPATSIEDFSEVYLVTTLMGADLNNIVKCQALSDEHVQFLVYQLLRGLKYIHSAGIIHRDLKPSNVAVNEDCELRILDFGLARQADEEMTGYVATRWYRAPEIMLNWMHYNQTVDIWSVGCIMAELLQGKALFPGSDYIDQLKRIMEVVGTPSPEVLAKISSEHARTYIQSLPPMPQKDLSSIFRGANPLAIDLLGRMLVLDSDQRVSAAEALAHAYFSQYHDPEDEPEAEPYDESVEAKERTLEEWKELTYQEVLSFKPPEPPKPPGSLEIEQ

Block 1
SMILES: Nc1c(C(=O)NCc2ccc(C(=O)NCCCC3CCCCC3)cc2)cnn1-c1ccccc1
Effect on: cell-free assay
Method: competition with immobilised ligand
Tested at: 0.1 µM
For Serine/threonine-protein kinase tousled-like 1 (TLK1, Homo sapiens, UniProt Q9UKI8): remaining binding read 77%.
Serine/threonine-protein kinase 10 (STK10, Homo sapiens, UniProt O94804) — remaining binding: 100%.
The remaining binding was 99% (Serine/threonine-protein kinase PAK 4 (PAK4, Homo sapiens, UniProt O96013)).
It gave 100% for remaining binding (Leucine-rich repeat serine/threonine-protein kinase 2 (LRRK2, Homo sapiens, UniProt Q5S007, G2019S)).
The remaining binding was 100% (Misshapen-like kinase 1 (MINK1, Homo sapiens, UniProt Q8N4C8)).
For Serine/threonine-protein kinase WNK3 (WNK3, Homo sapiens, UniProt Q9BYP7): remaining binding read 92%.

Block 2
Target: Sal-like protein 4, full length isoform A (SALL4, Homo sapiens, UniProt Q9UJQ4, residues 1-1053)
Sequence of UniProt Q9UJQ4 (whole entry, looked up): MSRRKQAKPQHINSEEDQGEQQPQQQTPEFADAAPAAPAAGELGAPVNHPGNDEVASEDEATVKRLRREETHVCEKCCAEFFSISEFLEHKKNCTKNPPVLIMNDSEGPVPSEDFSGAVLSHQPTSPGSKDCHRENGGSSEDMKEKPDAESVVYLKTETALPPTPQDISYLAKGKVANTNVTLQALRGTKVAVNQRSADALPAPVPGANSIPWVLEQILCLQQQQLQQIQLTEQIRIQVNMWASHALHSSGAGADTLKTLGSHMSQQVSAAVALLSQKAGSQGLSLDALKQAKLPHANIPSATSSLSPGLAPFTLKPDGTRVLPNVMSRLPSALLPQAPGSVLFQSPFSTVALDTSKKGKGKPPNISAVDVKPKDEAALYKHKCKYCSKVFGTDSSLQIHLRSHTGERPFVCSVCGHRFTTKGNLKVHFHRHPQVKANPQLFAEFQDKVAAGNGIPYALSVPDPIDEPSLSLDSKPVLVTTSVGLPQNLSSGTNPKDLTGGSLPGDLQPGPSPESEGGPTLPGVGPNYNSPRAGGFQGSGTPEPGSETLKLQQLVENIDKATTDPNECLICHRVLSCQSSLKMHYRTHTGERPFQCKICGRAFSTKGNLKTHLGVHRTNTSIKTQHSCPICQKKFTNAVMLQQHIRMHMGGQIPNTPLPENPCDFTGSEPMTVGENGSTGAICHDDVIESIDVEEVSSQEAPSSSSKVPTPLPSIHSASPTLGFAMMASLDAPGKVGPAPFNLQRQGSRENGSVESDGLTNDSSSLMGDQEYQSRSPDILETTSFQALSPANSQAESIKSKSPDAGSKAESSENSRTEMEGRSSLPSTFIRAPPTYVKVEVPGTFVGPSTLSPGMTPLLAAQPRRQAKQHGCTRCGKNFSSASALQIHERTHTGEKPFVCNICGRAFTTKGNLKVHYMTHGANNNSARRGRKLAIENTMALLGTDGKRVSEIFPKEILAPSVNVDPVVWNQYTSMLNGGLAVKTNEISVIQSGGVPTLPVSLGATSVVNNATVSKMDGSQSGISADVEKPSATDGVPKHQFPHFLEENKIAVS
Method: universal PBM
Form: double-stranded DNA, one strand shown
Sample: in vitro
Tested at: 600 nM
Setting: 8-mer, flanks averaged, mean of replicates
Reading: higher = stronger binding
`GTGGTAAC` gave an E-score of 0.0935.
`GCGGGAGC` has an E-score of -0.313.
`AGCTGAGA` gave an E-score of -0.126.
`GATCAGGC` gave an E-score of -0.179.
For `CGGGCCTC`, the E-score was -0.324.
`ACGTAGTC` gave an E-score of -0.0283.
The E-score of `GATTCTAC` is reported as -0.046.
`AGGCCAGC` gave an E-score of -0.304.

Block 3
Compound: COc1cc2ncnc(Nc3ccc(OCc4ccccc4)cc3)c2cc1OC
Effect on: enzyme activity
Mode: inhibitor
Tested at: 0.5 µM
Reference: control
It gave 99.4% for remaining activity (Tyrosine-protein kinase TXK (TXK, Homo sapiens, UniProt P42681)).
For Discoidin domain-containing receptor 2 (DDR2, Homo sapiens, UniProt Q16832): remaining activity read 100%.
Mitogen-activated protein kinase 11 (MAPK11, Homo sapiens, UniProt Q15759) — remaining activity: 96.9%.
The remaining activity was 94.3% (Misshapen-like kinase 1 (MINK1, Homo sapiens, UniProt Q8N4C8)).
For MAP/microtubule affinity-regulating kinase 4 (MARK4, Homo sapiens, UniProt Q96L34): remaining activity read 99.5%.
The remaining activity was 98.9% (Hepatocyte growth factor receptor (MET, Homo sapiens, UniProt P08581)).
For cGMP-dependent protein kinase 2 (PRKG2, Homo sapiens, UniProt Q13237): remaining activity read 104%.
Serine/threonine-protein kinase MARK2 (MARK2, Homo sapiens, UniProt Q7KZI7) — remaining activity: 108%.
RAC-beta serine/threonine-protein kinase (AKT2, Homo sapiens, UniProt P31751) — remaining activity: 101%.
For G protein-coupled receptor kinase 4 (GRK4, Homo sapiens, UniProt P32298): remaining activity read 106%.
Mitogen-activated protein kinase 1 (MAPK1, Homo sapiens, UniProt P28482) — remaining activity: 100%.
Vascular endothelial growth factor receptor 2 (KDR, Homo sapiens, UniProt P35968) — remaining activity: 96.8%.
The remaining activity was 99.1% (Serine/threonine-protein kinase Nek3 (NEK3, Homo sapiens, UniProt P51956)).

Block 4
Variant: V100D
Target: ABI1, truncated, D143A, DHFR fusion (Arabidopsis thaliana)
Method: DHFR PCA, deep sequencing
Sample: yeast
Setting: methotrexate growth selection, single substitutions
Reference: wild-type fitted maximum
Reading: higher = stronger binding
Starting sequence: PYL1, truncated, DHFR fusion (Arabidopsis thaliana); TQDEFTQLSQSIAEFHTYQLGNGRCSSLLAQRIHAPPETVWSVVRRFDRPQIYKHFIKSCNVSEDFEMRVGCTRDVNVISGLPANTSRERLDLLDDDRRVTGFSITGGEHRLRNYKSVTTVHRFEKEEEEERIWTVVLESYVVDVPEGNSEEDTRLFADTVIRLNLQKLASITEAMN; partner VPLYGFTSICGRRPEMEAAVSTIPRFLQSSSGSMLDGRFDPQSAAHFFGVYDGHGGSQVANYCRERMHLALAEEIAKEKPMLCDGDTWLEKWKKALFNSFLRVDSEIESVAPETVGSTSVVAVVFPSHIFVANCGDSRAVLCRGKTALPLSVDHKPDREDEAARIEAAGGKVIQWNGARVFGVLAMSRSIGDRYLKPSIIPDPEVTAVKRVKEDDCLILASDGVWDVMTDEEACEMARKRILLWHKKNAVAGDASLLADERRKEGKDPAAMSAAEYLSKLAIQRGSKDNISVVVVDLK
For together with: (+)-ABA 2500 µM: “relative binding score” read 6.2%.
For together with: (+)-ABA 0 µM: “relative binding score” read -5.41%.
together with: (+)-ABA 58 µM — “relative binding score”: -1.14%.
It gave -12.1% for “relative binding score” (together with: (+)-ABA 200 µM).
together with: (+)-ABA 0.39 µM — “relative binding score”: -15.7%.
For together with: (+)-ABA 0.11 µM: “relative binding score” read -11.6%.

Repeated from above (block 1):
Serine/threonine-protein kinase 10 (STK10, Homo sapiens, UniProt O94804) — remaining binding: 100%.
It gave 100% for remaining binding (Leucine-rich repeat serine/threonine-protein kinase 2 (LRRK2, Homo sapiens, UniProt Q5S007, G2019S)).
For Serine/threonine-protein kinase tousled-like 1 (TLK1, Homo sapiens, UniProt Q9UKI8): remaining binding read 77%.
For Serine/threonine-protein kinase WNK3 (WNK3, Homo sapiens, UniProt Q9BYP7): remaining binding read 92%.
The remaining binding was 100% (Misshapen-like kinase 1 (MINK1, Homo sapiens, UniProt Q8N4C8)).
